Measurements from different studies.
Lines come from different studies, so protocols differ. Values joined by “and” are separate records of one study, mostly repeats; a detail may differ. Numbers after ± are the reported error.
PTPN1: Tyrosine-protein phosphatase non-receptor type 1 (PTPN1, Homo sapiens, UniProt P18031)

Amino acid sequences for entries named in this document (tags omitted). Residues count along the entry.
UniProt P18031, 1-321 limits assumed: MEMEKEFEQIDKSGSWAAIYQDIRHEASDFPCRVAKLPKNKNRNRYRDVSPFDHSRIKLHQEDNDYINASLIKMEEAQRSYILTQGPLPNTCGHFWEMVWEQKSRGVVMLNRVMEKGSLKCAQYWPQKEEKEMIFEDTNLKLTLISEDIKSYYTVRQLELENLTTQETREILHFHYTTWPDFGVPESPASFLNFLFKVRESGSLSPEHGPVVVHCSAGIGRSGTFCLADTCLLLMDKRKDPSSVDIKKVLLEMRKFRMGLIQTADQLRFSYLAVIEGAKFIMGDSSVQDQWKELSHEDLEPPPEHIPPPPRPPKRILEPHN
UniProt P18031, whole entry: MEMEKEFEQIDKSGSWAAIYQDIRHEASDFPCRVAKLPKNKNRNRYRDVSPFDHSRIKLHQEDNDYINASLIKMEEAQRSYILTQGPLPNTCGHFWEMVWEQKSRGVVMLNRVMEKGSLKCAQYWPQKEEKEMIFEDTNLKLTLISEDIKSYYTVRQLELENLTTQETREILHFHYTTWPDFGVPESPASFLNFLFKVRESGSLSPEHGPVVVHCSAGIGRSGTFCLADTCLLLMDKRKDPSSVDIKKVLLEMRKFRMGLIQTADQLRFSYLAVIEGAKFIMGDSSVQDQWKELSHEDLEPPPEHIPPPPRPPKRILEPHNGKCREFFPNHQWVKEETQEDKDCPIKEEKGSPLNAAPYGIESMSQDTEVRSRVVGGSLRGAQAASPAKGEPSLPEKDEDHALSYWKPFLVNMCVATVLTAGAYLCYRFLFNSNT
UniProt P17706, whole entry: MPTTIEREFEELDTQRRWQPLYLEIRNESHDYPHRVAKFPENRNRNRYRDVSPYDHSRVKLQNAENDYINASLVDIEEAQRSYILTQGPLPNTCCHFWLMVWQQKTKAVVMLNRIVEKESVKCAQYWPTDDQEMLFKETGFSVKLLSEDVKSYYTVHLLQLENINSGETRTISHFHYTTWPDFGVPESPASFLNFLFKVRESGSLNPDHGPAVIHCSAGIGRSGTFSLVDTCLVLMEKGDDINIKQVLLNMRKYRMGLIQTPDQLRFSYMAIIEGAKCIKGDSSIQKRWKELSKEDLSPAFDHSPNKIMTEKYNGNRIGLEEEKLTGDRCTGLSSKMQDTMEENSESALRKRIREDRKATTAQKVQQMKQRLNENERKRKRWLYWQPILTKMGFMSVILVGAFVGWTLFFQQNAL
UniProt P54098, whole entry: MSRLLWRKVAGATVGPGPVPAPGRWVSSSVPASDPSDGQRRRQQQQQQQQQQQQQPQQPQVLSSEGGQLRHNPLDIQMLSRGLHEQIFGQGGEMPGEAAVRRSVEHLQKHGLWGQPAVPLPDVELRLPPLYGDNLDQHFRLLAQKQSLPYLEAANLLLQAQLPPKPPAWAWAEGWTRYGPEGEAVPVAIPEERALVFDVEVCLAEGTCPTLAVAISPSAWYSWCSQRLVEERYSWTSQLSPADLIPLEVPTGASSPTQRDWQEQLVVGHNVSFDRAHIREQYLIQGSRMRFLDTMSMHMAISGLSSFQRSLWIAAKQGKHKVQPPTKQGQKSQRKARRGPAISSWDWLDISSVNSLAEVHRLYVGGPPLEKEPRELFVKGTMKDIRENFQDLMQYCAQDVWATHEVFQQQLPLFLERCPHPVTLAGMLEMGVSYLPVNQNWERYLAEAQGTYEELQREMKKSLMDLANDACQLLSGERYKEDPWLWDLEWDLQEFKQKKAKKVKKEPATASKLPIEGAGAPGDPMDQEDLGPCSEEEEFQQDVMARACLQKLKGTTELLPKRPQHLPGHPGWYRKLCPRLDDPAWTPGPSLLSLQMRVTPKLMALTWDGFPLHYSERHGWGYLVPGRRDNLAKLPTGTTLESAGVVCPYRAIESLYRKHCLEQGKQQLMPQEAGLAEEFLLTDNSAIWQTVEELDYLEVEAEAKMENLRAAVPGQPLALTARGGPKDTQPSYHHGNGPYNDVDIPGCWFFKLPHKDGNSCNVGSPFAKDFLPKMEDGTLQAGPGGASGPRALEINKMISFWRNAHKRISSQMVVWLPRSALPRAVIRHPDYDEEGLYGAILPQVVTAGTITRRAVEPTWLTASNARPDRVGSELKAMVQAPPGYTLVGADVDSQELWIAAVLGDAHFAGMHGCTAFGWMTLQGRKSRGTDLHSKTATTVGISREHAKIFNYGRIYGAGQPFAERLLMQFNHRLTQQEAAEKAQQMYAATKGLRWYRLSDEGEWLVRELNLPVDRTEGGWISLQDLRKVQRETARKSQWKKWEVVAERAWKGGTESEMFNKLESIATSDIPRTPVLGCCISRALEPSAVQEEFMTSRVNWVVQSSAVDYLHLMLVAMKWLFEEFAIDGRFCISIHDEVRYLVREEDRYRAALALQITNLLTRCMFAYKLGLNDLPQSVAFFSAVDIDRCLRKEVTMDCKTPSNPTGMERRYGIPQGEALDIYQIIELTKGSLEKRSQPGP
UniProt Q16539, whole entry: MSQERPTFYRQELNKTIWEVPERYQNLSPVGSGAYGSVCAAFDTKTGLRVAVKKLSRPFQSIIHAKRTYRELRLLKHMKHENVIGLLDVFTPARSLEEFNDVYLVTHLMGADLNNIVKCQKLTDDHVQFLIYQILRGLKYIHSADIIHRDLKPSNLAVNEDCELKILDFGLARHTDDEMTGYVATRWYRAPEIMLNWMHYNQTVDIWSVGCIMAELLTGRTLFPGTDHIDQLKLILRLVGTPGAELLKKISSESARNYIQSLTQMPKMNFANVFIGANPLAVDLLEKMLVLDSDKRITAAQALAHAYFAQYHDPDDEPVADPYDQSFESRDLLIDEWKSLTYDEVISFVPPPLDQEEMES
UniProt P12821, 30-1306 limits assumed: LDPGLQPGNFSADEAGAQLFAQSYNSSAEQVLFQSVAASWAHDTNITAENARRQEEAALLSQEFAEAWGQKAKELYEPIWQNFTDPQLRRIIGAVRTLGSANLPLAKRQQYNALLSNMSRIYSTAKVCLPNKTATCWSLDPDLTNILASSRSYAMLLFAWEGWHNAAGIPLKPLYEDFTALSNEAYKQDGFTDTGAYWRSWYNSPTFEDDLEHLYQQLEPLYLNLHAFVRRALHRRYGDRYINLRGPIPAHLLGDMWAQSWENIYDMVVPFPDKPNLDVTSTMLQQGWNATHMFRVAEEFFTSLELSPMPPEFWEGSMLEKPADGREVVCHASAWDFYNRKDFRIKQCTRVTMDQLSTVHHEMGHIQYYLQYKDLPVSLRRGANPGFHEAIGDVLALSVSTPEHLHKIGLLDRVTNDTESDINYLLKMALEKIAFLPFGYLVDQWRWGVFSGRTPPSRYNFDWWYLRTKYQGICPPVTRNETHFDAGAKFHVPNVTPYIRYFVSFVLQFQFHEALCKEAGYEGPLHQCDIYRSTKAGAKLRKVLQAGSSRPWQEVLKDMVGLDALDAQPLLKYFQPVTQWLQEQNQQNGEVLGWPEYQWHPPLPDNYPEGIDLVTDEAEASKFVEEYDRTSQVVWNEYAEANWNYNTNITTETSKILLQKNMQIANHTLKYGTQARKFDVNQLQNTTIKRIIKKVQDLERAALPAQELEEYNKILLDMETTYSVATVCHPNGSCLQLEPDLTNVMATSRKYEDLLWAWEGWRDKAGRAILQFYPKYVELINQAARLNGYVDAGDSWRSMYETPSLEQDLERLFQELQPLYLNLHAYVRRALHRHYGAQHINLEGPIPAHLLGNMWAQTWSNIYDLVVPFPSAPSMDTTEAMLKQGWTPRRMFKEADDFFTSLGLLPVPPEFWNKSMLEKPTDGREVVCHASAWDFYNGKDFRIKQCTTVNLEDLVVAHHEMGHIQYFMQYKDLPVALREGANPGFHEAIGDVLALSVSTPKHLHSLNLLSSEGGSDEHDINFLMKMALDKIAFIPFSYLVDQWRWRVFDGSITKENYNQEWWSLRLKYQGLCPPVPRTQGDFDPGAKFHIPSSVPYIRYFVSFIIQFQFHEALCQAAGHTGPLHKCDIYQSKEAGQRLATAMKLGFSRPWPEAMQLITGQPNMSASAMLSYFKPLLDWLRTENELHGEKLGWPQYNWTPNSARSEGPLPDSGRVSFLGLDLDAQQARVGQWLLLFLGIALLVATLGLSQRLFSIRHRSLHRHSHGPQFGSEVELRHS
UniProt Q66478, 863-1012 limits assumed: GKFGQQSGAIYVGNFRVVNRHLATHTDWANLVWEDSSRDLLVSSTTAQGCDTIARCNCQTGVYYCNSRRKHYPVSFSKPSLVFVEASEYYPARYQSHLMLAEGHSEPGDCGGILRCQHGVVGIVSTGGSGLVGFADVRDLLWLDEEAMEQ
UniProt O60502, whole entry: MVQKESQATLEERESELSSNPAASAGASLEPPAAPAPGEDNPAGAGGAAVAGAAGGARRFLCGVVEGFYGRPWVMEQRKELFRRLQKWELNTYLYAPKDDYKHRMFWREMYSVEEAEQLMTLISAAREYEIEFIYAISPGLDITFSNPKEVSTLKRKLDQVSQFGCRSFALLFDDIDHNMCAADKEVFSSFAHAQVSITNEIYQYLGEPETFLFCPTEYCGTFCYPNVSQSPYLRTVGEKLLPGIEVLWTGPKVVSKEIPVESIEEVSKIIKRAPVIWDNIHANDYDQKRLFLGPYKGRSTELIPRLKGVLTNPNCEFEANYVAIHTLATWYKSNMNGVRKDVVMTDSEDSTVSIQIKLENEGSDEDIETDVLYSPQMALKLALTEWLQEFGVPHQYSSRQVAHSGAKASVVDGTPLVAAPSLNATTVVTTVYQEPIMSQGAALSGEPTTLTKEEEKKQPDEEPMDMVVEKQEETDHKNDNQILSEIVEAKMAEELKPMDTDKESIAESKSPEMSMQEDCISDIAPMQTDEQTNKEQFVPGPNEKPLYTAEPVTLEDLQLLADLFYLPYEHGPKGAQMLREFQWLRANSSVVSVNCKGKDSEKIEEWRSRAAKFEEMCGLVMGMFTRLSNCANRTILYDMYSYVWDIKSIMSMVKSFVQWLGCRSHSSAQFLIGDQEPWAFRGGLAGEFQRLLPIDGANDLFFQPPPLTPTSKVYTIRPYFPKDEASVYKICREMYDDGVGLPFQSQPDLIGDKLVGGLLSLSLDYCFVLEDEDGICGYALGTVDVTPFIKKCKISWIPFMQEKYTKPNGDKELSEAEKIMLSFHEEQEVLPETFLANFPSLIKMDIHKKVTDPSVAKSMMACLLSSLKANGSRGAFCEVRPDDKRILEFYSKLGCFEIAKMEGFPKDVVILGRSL
UniProt P30419, whole entry: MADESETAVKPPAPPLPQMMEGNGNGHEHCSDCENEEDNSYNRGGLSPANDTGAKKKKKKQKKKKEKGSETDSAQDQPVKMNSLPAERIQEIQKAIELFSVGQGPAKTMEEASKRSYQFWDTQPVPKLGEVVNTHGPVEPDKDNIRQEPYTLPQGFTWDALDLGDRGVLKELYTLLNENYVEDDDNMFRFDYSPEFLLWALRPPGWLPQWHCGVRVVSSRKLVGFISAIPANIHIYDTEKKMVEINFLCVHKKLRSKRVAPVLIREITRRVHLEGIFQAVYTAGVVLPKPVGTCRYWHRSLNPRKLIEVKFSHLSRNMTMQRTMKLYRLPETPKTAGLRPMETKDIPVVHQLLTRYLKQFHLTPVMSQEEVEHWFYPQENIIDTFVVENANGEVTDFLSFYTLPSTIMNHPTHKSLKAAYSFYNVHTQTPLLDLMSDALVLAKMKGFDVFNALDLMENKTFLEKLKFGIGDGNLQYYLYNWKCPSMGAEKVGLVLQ

With `Cc1c(Cn2c(C)nc3c(C(=O)O)cc(N4CCOCC4)cc32)cccc1C(F)(F)F` the EC50 was 24.8 µM (C4-2B; cell growth, WST-8; 3 days).
The Km of `C[C@H](NC(=O)[C@H](C)NC(=O)[C@H](Cc1ccc(OP(=O)(O)O)cc1)NC(=O)[C@H](Cc1ccccc1)NC(=O)[C@H](CCC(=O)O)NC(=O)[C@H](Cc1cc(F)c(O)c(F)c1)NC(=O)[C@H](CCC(=O)O)NC(=O)[C@@H](N)CCCNC(=N)N)C(N)=O` is reported as 14 ± 2 µM (PTPN1; enzyme activity, substrate; pH 7.4).
With `CC(=O)N[C@@H](CCCNC(=N)N)C(=O)N[C@H](C(=O)N[C@@H](CC(C)C)C(=O)N[C@@H](C)C(=O)N[C@@H](C)C(=O)N[C@@H](Cc1ccc(OP(=O)(O)O)cc1)C(=O)N[C@@H](C)C(=O)N[C@@H](C)C(=O)N[C@@H](C)C(=O)N[C@@H](C)C(N)=O)[C@@H](C)O` the Km was 66 ± 17 µM (PTPN1; substrate, continuous UV; pH 7.4, multiply phosphorylated peptides apparent).
For `CC[C@H](C)[C@H](NC(=O)[C@H](CCCNC(=N)N)NC(=O)[C@H](CCCCN)NC(=O)[C@H](CCCNC(=N)N)NC(=O)[C@H](C)NC(C)=O)C(=O)N[C@@H](Cc1ccc(OP(=O)(O)O)cc1)C(=O)N[C@@H](C)C(=O)N[C@@H](C)C(N)=O`, the Km was 166 ± 6 µM (PTPN1; substrate; pH 7.4, catalytic domain).
With `CC[C@H](C)[C@H](NC(=O)[C@@H](NC(=O)[C@H](Cc1ccccc1)NC(=O)[C@H](CCC(=O)O)NC(=O)CNC(=O)[C@H](Cc1ccc(OP(=O)(O)O)cc1)NC(=O)[C@@H](NC(=O)[C@H](CC(=O)O)NC(=O)[C@H](C)NC(=O)[C@@H](NC(=O)[C@H](CC(=O)O)NC(C)=O)[C@@H](C)O)C(C)C)[C@@H](C)O)C(N)=O` the Km was 7 ± 1 µM (PTPN1; substrate, continuous UV; pH 7.4, multiply phosphorylated peptides apparent).
`CC(=O)NCCCC[C@H](NC(=O)[C@H](CCCCNC(C)=O)NC(=O)[C@H](Cc1c[nH]cn1)NC(=O)[C@H](CCCNC(=N)N)NC(C)=O)C(=O)Nc1ccc2c(C)cc(=O)oc2c1` gave a Km of 9 ± 3 µM (Protein deacetylase HDAC6 (HDAC6, Homo sapiens, UniProt Q9UBN7); substrate; 25 °C).
`CCCC[C@H](NC(=O)[C@H](Cc1ccccc1)NC(C)=O)C(=O)NCC(=O)N[C@@H](C)C(=O)N[C@@H](Cc1cc(=O)oc2cc(OP(=O)(O)O)ccc12)C(=O)N[C@@H](CCC(N)=O)C(=O)N[C@@H](CC(C)C)C(=O)N[C@@H](CCC(=O)O)C(=O)N[C@@H](CCC(=O)O)C(N)=O` gave a Km of 270 ± 50 µM (Tyrosine-protein phosphatase non-receptor type 2 (PTPN2, Homo sapiens, UniProt P17706); peptide hydrolysis, substrate).
The Km of `CCCC[C@H](NC(=O)[C@H](CCC(N)=O)NC(=O)[C@@H](NC(=O)[C@H](CCC(=O)O)NC(=O)[C@H](CC(=O)O)NC(=O)[C@H](Cc1ccc(OP(=O)(O)O)cc1)NC(=O)[C@H](CC(C)C)NC(=O)[C@@H]1CCCN1C(=O)CNC(=O)[C@H](Cc1c[nH]c2ccccc12)NC(=O)[C@H](C)NC(C)=O)C(C)C)C(N)=O` is reported as 1.8 ± 0.1 µM (PTPN1; substrate; pH 7.4, catalytic domain).
With `CC(=O)N[C@@H](C)C(=O)N[C@@H](C)C(=O)N[C@@H](C)C(=O)N[C@@H](C)C(=O)N[C@@H](C)C(=O)N[C@@H](Cc1ccc(OP(=O)(O)O)cc1)C(=O)N[C@@H](CCC(=O)O)C(=O)N[C@@H](CCC(=O)O)C(=O)N[C@H](C(=O)N[C@@H](Cc1c[nH]cn1)C(N)=O)C(C)C` the Km was 32 ± 7 µM (PTPN1; substrate, continuous UV; pH 7.4, multiply phosphorylated peptides apparent).
For `CC/C=C\C/C=C\CCC/C=C/C=C/C=C\CCCC(=O)O`, the IC50 was 11 ± 0.7 µM (DNA polymerase subunit gamma-1 (POLG, Homo sapiens, UniProt P54098); enzyme activity, inhibitor).
`CC(=O)N[C@@H](C)C(=O)N[C@@H](Cc1c[nH]c2ccccc12)C(=O)N[C@@H](CO)C(=O)N[C@@H](Cc1ccc(OP(=O)(O)O)cc1)C(=O)N[C@@H](C)C(=O)N[C@@H](CC(=O)O)C(=O)N[C@@H](Cc1ccc(OP(=O)(O)O)cc1)C(=O)N[C@@H](C)C(=O)N[C@@H](C)C(N)=O` gave a Km of 22 ± 5 µM (SHP-1 catalytic domain (ΔSH2); phosphatase activity, substrate; pH 7.4).
`C=C(C)C(=O)Nc1ccc(-c2c(-c3ccc(Oc4nccc(C)n4)c(F)c3)c3c(N)ncnc3n2C)cc1` — result for “area over GR curve”: 0.0307 (MFE-319; cell growth, CellTiter-Glo; 120 h, unit not given; baseline: untreated growth rate, higher = stronger inhibition).
`CC(C)CC(NC(=O)C(Cc1ccccc1)NC(=O)c1cnc(C(=O)NC(Cc2ccccc2)C(=O)NC(CC(C)C)B(O)O)cn1)B(O)O` (stereo not drawn) has an IC50 of > 0.018 µM (proteasome (human); trypsin-like activity, inhibitor, Proteasome-Glo; RPMI-8226; 24 h).
With `CC(=O)N[C@@H](Cc1ccc(O)cc1)C(=O)N[C@@H](CC(=O)O)C(=O)N[C@@H](CCC(=O)O)C(=O)N[C@@H](CC(=O)O)C(=O)N[C@@H](Cc1ccccc1)C(=O)N[C@@H](Cc1ccc(OP(=O)(O)O)cc1)C(=O)N[C@@H](CC(=O)O)C(=O)N[C@@H](Cc1ccc(O)cc1)C(=O)N[C@@H](CCC(=O)O)C(=O)N[C@@H](Cc1ccccc1)C(N)=O` the Km was 0.38 ± 0.02 µM (PTPN1; substrate; pH 7.4, catalytic domain).
The remaining activity of `CC(C)C[C@H](NC(=O)[C@H](C)NC(=O)[C@H](CCCNC(=N)N)NC(=O)[C@H](CCCNC(=N)N)NC(=O)[C@H](CCCNC(=N)N)NC(=O)[C@H](C)NC(=O)[C@H](CC(C)C)NC(=O)[C@H](CCCNC(=N)N)NC(=O)[C@H](CO)NC(=O)[C@H](CCCCN)NC(=O)[C@H](CO)NC(=O)Cn1cc(COC(=O)[C@]2(C)C=C(C(=O)OC(C)(C)C)C(=O)CC2)nn1)C(=O)O` is reported as 0.599 and 0.606 and 0.581 (Mitogen-activated protein kinase 14 (MAPK14, Homo sapiens, UniProt Q16539); enzyme activity, inhibitor, D-SENSOR kinase; 0.2743 µM, unit not given; baseline: untreated).
`CC(C)C[C@H](NC(=O)[C@@H](NC(=O)[C@H](CC(C)C)NC(=O)[C@H](CS)NC(=O)CNS(=O)(=O)c1cccc2c(N(C)C)cccc12)C(C)C)C(=O)O` has a Km of 3.1 ± 1.7 µM (geranylgeranyltransferase type-I (Rattus norvegicus, UniProt P53610+Q04631); substrate, fluorescence; 30 °C, added: SmgGDS-607 5 µM and GGPP 10 µM).
With `COc1ccc2c(CC(=O)N[C@@H](CCCNC(=N)N)C(=O)N3CCC[C@H]3C(=O)N3CCC[C@H]3C(=O)NCC(=O)N[C@@H](Cc3ccccc3)C(=O)N[C@@H](CO)C(=O)N[C@@H](C)C(=O)N[C@@H](Cc3ccccc3)C(=O)N[C@@H](CCCCNc3ccc([N+](=O)[O-])cc3[N+](=O)[O-])C(=O)O)cc(=O)oc2c1` the Km was 57 ± 0.8 µM (Angiotensin-converting enzyme (ACE, Homo sapiens, UniProt P12821); enzyme activity, substrate, fluorogenic; recombinant enzyme).
For `CN1C(=O)CCc2cc(CNC(C)(C)[C@@H](O)c3ccccc3)ccc21`, the AUC(0-inf) was 14200 ng·min/mL/g (male CD-1 mouse, plasma; subcutaneous, 10 mg/kg).
`CC[C@H](C)[C@H](NC(=O)[C@H](CCCCN)NC(=O)[C@H](CC(=O)O)NC(=O)[C@H](CCCNC(=N)N)NC(=O)c1ccc(N=Nc2ccc(N(C)C)cc2)cc1)C(=O)NCC(=O)N[C@@H](Cc1ccccc1)C(=O)N[C@@H](CCCNC(=N)N)C(=O)NCC(=O)N[C@@H](CCCCN)C(=O)N[C@@H](Cc1ccccc1)C(=O)NCC(=O)N[C@@H](CCC(N)=O)C(=O)N[C@@H](CC(=O)O)C(=O)N[C@@H](CCC(=O)NCCNc1cccc2c(S(=O)(=O)O)cccc12)C(N)=O` gave a Km of 6.92 ± 1.11 µM (Genome polyprotein, 2A protease (Enterovirus A71, UniProt Q66478); protease activity, substrate, FRET; enterovirus 71; pH 7.4, 30 °C).
`CC(=O)N[C@@H](C)C(=O)N[C@@H](C)C(=O)N[C@@H](Cc1ccc(OP(=O)(O)O)cc1)C(=O)N[C@@H](C)C(=O)N[C@@H](C)C(=O)N[C@@H](C)C(=O)N[C@@H](CC(=O)O)C(=O)N[C@@H](CC(=O)O)C(N)=O` gave a Km of 3 ± 0.1 µM (PTPN1; substrate; pH 7.4, catalytic domain).
With `CC(=O)N[C@H]1[C@H](OC[C@H](NC(=O)[C@H](Cc2c[nH]cn2)NC(=O)[C@H](C)NC(=O)[C@@H](NC(C)=O)C(C)C)C(=O)NCC(=O)N[C@@H](C)C(=O)N[C@@H](CCCCN)C(N)=O)O[C@H](CO)[C@@H](O)[C@@H]1O` the Km was 789 ± 36 µM (Protein O-GlcNAcase (OGA, Homo sapiens, UniProt O60502); substrate; pH 7.5, 37 °C, added: 4MU-GlcNAc 200 µM competition).
With `CC(=O)N[C@@H](CC(=O)O)C(=O)N[C@H](C(=O)N[C@@H](C)C(=O)N[C@@H](CC(=O)O)C(=O)N[C@H](C(=O)N[C@@H](Cc1ccc(OP(=O)(O)O)cc1)C(=O)N[C@@H](C)C(=O)N[C@@H](C)C(N)=O)C(C)C)[C@@H](C)O` the Km was 8.9 ± 1 µM (PTPN1; substrate, continuous UV; pH 7.4, multiply phosphorylated peptides apparent).
`CCOC(=O)c1c(-c2ccc(Cl)cc2Cl)n(-c2nc(-c3ccc(Cl)cc3)c3c(NC(=O)c4ccccc4)nnc-3[nH]2)[nH]c1=O` gave a cell growth of 14.3% (UACC-62; SRB; 10 µM).
With `CC(=O)N[C@@H](CCCNC(=N)N)C(=O)N[C@H](C(=O)N[C@@H](CC(C)C)C(=O)N[C@@H](C)C(=O)N[C@@H](C)C(=O)N[C@@H](Cc1ccc(OP(=O)(O)O)cc1)C(=O)N[C@@H](CCC(=O)O)C(=O)N[C@@H](CCC(=O)O)C(=O)N[C@H](C(=O)N[C@@H](Cc1c[nH]cn1)C(N)=O)C(C)C)[C@@H](C)O` the Km was 43 ± 1 µM (PTPN1; substrate, continuous UV; pH 7.4, multiply phosphorylated peptides apparent).
The Km of `NCC(=O)N[C@@H](CO)C(=O)N[C@@H](CS)C(=O)N[C@@H](CS)C(=O)N[C@@H](CO)C(=O)N[C@@H](CS)C(=O)N1CCC[C@H]1C(=O)N[C@@H](CC(=O)O)C(=O)O` is reported as 28.2 µM (Glycylpeptide N-tetradecanoyltransferase 1 (NMT1, Homo sapiens, UniProt P30419); substrate).
`CC(=O)N[C@@H](C)C(=O)N[C@@H](C)C(=O)N[C@@H](Cc1ccc(OP(=O)(O)O)cc1)C(=O)N[C@@H](C)C(=O)N[C@@H](C)C(=O)N[C@@H](CC(=O)O)C(=O)N[C@@H](CC(=O)O)C(=O)N[C@@H](C)C(N)=O` has a Km of 2.6 ± 0.1 µM (PTPN1; substrate; pH 7.4, catalytic domain).
`N#Cc1c(-c2ccc(Cl)cc2Cl)n(-c2nc(-c3ccc(Cl)cc3)c3c(NC(=O)c4ccccc4)nnc-3[nH]2)[nH]c1=O` has a cell growth of 30.1% (UACC-62; SRB; 10 µM).

Repeated from above:
With `CC(=O)N[C@@H](C)C(=O)N[C@@H](C)C(=O)N[C@@H](C)C(=O)N[C@@H](C)C(=O)N[C@@H](C)C(=O)N[C@@H](Cc1ccc(OP(=O)(O)O)cc1)C(=O)N[C@@H](CCC(=O)O)C(=O)N[C@@H](CCC(=O)O)C(=O)N[C@H](C(=O)N[C@@H](Cc1c[nH]cn1)C(N)=O)C(C)C` the Km was 32 ± 7 µM (PTPN1; substrate, continuous UV; pH 7.4, multiply phosphorylated peptides apparent).
With `COc1ccc2c(CC(=O)N[C@@H](CCCNC(=N)N)C(=O)N3CCC[C@H]3C(=O)N3CCC[C@H]3C(=O)NCC(=O)N[C@@H](Cc3ccccc3)C(=O)N[C@@H](CO)C(=O)N[C@@H](C)C(=O)N[C@@H](Cc3ccccc3)C(=O)N[C@@H](CCCCNc3ccc([N+](=O)[O-])cc3[N+](=O)[O-])C(=O)O)cc(=O)oc2c1` the Km was 57 ± 0.8 µM (Angiotensin-converting enzyme (ACE, Homo sapiens, UniProt P12821); enzyme activity, substrate, fluorogenic; recombinant enzyme).
The remaining activity of `CC(C)C[C@H](NC(=O)[C@H](C)NC(=O)[C@H](CCCNC(=N)N)NC(=O)[C@H](CCCNC(=N)N)NC(=O)[C@H](CCCNC(=N)N)NC(=O)[C@H](C)NC(=O)[C@H](CC(C)C)NC(=O)[C@H](CCCNC(=N)N)NC(=O)[C@H](CO)NC(=O)[C@H](CCCCN)NC(=O)[C@H](CO)NC(=O)Cn1cc(COC(=O)[C@]2(C)C=C(C(=O)OC(C)(C)C)C(=O)CC2)nn1)C(=O)O` is reported as 0.599 and 0.606 and 0.581 (Mitogen-activated protein kinase 14 (MAPK14, Homo sapiens, UniProt Q16539); enzyme activity, inhibitor, D-SENSOR kinase; 0.2743 µM, unit not given; baseline: untreated).
